Measurements pooled from the literature.
Parts stem from different laboratories: compare values within a part only. Positions count from the first letter of the parent shown.

Series 1
Target: Prothrombin, mature alpha-thrombin (F2, Homo sapiens, UniProt P00734)
Method: aptamer microarray, sandwich
Molecule type: DNA with 2'F-ANA
Medium: in vitro
Tested at: 200 nM
Notes: whole 15-mer aptamer, many near background
Added: Cy3 exosite-II aptamer, 400 nM
Reading: higher = stronger binding
Strand: GGTTGGTGTGGTTGG
Modification | mean fluorescence intensity [a.u.]
2'F-ANA at 1 4 5 10 11 12 13 14 | 79.5
2'F-ANA at 2 3 4 6 7 8 10 11 | 257
2'F-ANA at 2 3 5 8 10 12 13 15 | 56.9
2'F-ANA at 3 8 9 10 11 13 14 15 | 447
2'F-ANA at 1 2 3 4 5 6 9 11 12 | 143
2'F-ANA at 1 2 9 10 11 15 | 67.9
2'F-ANA at 2 3 4 6 8 10 11 15 | 194
2'F-ANA at 2 3 8 9 10 13 | 364
2'F-ANA at 1 2 4 5 6 7 8 9 10 11 12 14 15 | 50.6
2'F-ANA at 1 2 3 6 7 8 9 11 12 13 14 15 | 108
2'F-ANA at 1 2 5 6 7 9 11 12 13 14 15 | 50.5
2'F-ANA at 1 2 3 4 7 8 | 237
2'F-ANA at 1 3 7 11 12 13 15 | 360
2'F-ANA at 7 10 13 14 | 129
2'F-ANA at 3 7 10 11 15 | 511
2'F-ANA at 1 2 6 8 12 15 | 344
2'F-ANA at 1 3 5 6 7 9 10 12 13 14 | 44.5
2'F-ANA at 1 4 5 9 10 11 12 14 | 45.3
2'F-ANA at 1 2 3 6 7 11 15 | 156
2'F-ANA at 2 3 5 6 9 11 12 13 14 15 | 54.2

Series 2
Target: Myc proto-oncogene protein, bHLH-zipper, MAX partner unstated (MYC, Homo sapiens, UniProt P01106, residues 368-449)
Chain of UniProt P01106 (368-449, looked up): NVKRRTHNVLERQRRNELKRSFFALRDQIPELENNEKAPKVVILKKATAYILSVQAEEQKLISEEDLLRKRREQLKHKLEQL
Method: protein-binding microarray
Molecule type: double-stranded DNA, one strand shown
Medium: in vitro
Tested at: not given
Notes: k-mer, scored over probes, only values ≥0.25
Reading: higher = stronger binding
Strand | E-score
GCCTCGCC | 0.298
CTGCACAC | 0.345
CGCATGCA | 0.416
CCGCCCCA | 0.392
CATGAGCA | 0.254
CACGCACA | 0.369
CGTGCAGA | 0.311
GCGGGGAA | 0.27
CAACATGA | 0.281
AGCGTGAC | 0.358
ACCATGGG | 0.288
GGGCACAC | 0.3
CATGTGCA | 0.454
CAGCCATG | 0.317
ACGTGCCT | 0.373
AAACACAT | 0.308
ACCCACGT | 0.42

Series 3
Target: Sal-like protein 4, full length isoform B (SALL4, Homo sapiens, UniProt Q9UJQ4-2, residues 1-616)
Method: universal PBM
Molecule type: double-stranded DNA, one strand shown
Medium: in vitro
Tested at: not given
Notes: 8-mer, flanks averaged, mean of replicates
Reading: higher = stronger binding
Strand | E-score
ACTCGTTC | 0.0245
GAGTGGGA | -0.0805
GCGTATTA | 0.214
CATGAAGG | 0.0735
GCGATATA | 0.171
CATCATGA | 0.0759
CTGCGGTC | -0.313
CTAACGTA | 0.241
AACGATAC | 0.163
CCTACCCA | -0.0293
AGAGTCTC | -0.235
CTATCTAA | 0.13
AGCGTACG | -0.0305
CTTCGTCA | 0.0265
CTGAGTGC | -0.248
AGACCATG | -0.204
AAAGCCAT | 0.135
GCCTTTCC | -0.0124
GAAATCTA | 0.209

Series 4
Target: Interferon regulatory factor 7, full length, phosphomimetic (IRF7, Homo sapiens, UniProt Q92985, residues 1-503, S101K/S471D/S472D/S475D/S476D/S477D/S483D/S484D/S487D)
Method: protein-binding microarray
Molecule type: double-stranded DNA, one strand shown
Medium: in vitro
Tested at: 250 nM
Notes: 60-bp whole probe
Added: salmon DNA 0.4 mg/ml
Relative to: random background probes
Reading: higher = stronger binding
Shared flanks, not repeated: GCCTAGCAC … GTCTTGATTCGCTTGACGCTGCTG
Construct (chain): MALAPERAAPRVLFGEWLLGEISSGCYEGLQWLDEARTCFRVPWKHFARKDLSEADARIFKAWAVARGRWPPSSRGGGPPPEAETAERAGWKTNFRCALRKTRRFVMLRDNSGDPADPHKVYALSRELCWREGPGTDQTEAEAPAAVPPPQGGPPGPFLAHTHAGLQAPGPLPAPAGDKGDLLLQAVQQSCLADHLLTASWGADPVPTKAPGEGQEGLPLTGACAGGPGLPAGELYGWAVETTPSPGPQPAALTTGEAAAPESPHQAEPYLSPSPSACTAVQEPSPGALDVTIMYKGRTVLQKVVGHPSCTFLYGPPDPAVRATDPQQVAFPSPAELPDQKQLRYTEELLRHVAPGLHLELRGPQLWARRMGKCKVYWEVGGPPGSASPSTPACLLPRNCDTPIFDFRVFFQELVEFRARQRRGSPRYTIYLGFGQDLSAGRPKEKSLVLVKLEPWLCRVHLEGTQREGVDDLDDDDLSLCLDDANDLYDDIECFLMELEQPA
Strand | log fluorescence [z-score]
CTAGGACTGGACTTTCGGTTAGTGCTA | 0.46
GACGATATCGGGTTTCGAAACGTGCTA | 4.84
GACTTTCTTTCAAATGAAGGAGTGCTA | 1.51
TGTGTTTTCATTTTATGACAGTGCTAG | 3.4
TCAAATTGTCCTTTCACACTGTGCTAG | 0.361
GGTCCAACAAACAGATCCATGTGCTAG | 0.63
TTAGGACTGGACACTGAGTTAGTGCTA | -0.362
GGTCTTTTCGCTTTCTTTACGTGCTAG | 4.39
GACGGTTTCCTGTTCCTGACGTGCTAG | 3.06
GACGGTTTCGGTCTCGGTACGTGCTAG | 8.07
TCACTTTTCATTTTCTTACTGTGCTAG | 1.95
GACGAACTGAGTCCCGAGACGTGCTAG | 0.112

Series 5
Target: Histone acetyltransferase KAT6A, winged helix 1, GST fusion (KAT6A, Homo sapiens, UniProt Q92794, residues 1-85)
Method: protein binding microarray
Molecule type: double-stranded DNA, one strand shown
Medium: in vitro
Tested at: not given
Notes: 8-mer, flanks averaged, mean of 2 arrays, mostly near background
Relative to: not given
Reading: higher = stronger binding
Residues (chain): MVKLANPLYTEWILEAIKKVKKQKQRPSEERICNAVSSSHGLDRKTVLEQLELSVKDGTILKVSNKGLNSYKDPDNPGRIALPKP
Strand | E-score
CATAGATG | -0.00102
CACTCGGG | 0.0631
TGATACCA | -0.148
CCCACCGC | 0.281
ATGTCAAT | -0.0167
GAACCTGA | -0.112
AACGGTGT | 0.0665
CTGCCAAG | -0.209
ACCGACAG | 0.206
GCGGGTCA | 0.241
AAGAGTGC | 0.00587
CAGCGGTC | 0.197
CACTAAAC | 0.0231
ACACGAAC | -0.003
GGGTAAGA | -0.145
TCGCCAGA | -0.169
ACGTTTGA | -0.0411
GTGGTAAC | -0.0975

Series 6
Target: CCND3, cyclin fold, Cln2 fusion (human)
Method: yeast growth competition, sequencing
Medium: yeast
Notes: weak parent motif
Relative to: not given
Reading: higher = stronger binding
Parent: ORC1 docking peptide (human); PRARKRLELGNLG
Substitution | normalised enrichment score
PRARKFLELGNLG [R6F] | 0.282
PRARKRLELGNLT [G13T] | 0.0659
PFARKRLELGNLG [R2F] | 0.104
QRARKRLELGNLG [P1Q] | 0.226
PRARKRLELGNWG [L12W] | 0.16
PRARKRLELINLG [G10I] | 0.115
PRAGKRLELGNLG [R4G] | 0.141
PRARKRLDLGNLG [E8D] | 0.28
LRARKRLELGNLG [P1L] | 0.0748
PRARKRLELGNNG [L12N] | 0.136
PRARKRLELGNYG [L12Y] | 0.0826
PRARKRLELGNLV [G13V] | 0.095
PRNRKRLELGNLG [A3N] | 0.225
PRARKRLELGNLA [G13A] | 0.0654

A few entries again (series 6):
Substitution | normalised enrichment score
PRARKFLELGNLG [R6F] | 0.282
PRARKRLELGNLT [G13T] | 0.0659
PFARKRLELGNLG [R2F] | 0.104
QRARKRLELGNLG [P1Q] | 0.226
PRARKRLELGNWG [L12W] | 0.16
PRARKRLELINLG [G10I] | 0.115
PRAGKRLELGNLG [R4G] | 0.141
PRARKRLDLGNLG [E8D] | 0.28
LRARKRLELGNLG [P1L] | 0.0748
PRARKRLELGNNG [L12N] | 0.136
PRARKRLELGNYG [L12Y] | 0.0826
PRARKRLELGNLV [G13V] | 0.095
PRNRKRLELGNLG [A3N] | 0.225
PRARKRLELGNLA [G13A] | 0.0654
